Experimental data collected from several papers.
Numbered parts are unrelated; each lists some results of a single study.

Set 1 — technique: aptamer microarray, sandwich; form: DNA with 2'F-ANA; sample: in vitro; tested at: 200 nM; added: Cy3 exosite-II aptamer, 400 nM; direction: higher = stronger binding; oligonucleotide: GGTTGGTGTGGTTGG
Target: Prothrombin, mature alpha-thrombin (F2, Homo sapiens, UniProt P00734)
Notes: whole 15-mer aptamer, many near background
Modification	mean fluorescence intensity
2'F-ANA at 9 10 11 12 13 15	174 a.u.
2'F-ANA at 3 4 5 7 9 10 12 14 15	52 a.u.
2'F-ANA at 2 4 5 6 9 10 11 15	50.6 a.u.
2'F-ANA at 1 2 3 4 6 7 12 15	346 a.u.
2'F-ANA at 1 4 6 7 9 11 15	134 a.u.
2'F-ANA at 6 8 11 14	176 a.u.
2'F-ANA at 2 3 7 8 9 11 12	1040 a.u.
2'F-ANA at 2 5 8 9 12 14 15	46.1 a.u.
2'F-ANA at 1 4 5 8 13	48.5 a.u.
2'F-ANA at 1 2 3 4 6 7 9 11 15	115 a.u.
2'F-ANA at 3 4 6 7 9 11 12	619 a.u.
2'F-ANA at 4 5 6 10 14	168 a.u.
2'F-ANA at 4 5 8 9 10 11 12 14 15	56.5 a.u.
2'F-ANA at 1 2 4 5 6 10 15	119 a.u.
2'F-ANA at 4 6 9 11 13 15	137 a.u.
2'F-ANA at 1 2 5 9 12 14 15	45.5 a.u.
2'F-ANA at 1 2 5 6 7 8 11 12 13 14 15	47.2 a.u.
2'F-ANA at 1 3 8 9 15	384 a.u.
2'F-ANA at 1 3 4 6 8 10 11 15	59.7 a.u.
2'F-ANA at 3 7 11 12 13 15	1210 a.u.
2'F-ANA at 4 5 6 9 10 11 12 13 14 15	55.8 a.u.
2'F-ANA at 1 3 4 5 6 8 10 11	66.4 a.u.
2'F-ANA at 3 4 6 7 15	668 a.u.
2'F-ANA at 1 2 3 8 13 14	71 a.u.
2'F-ANA at 2 3 4 6 8 9 14	255 a.u.

Set 2 — technique: protein binding microarray; form: double-stranded DNA, one strand shown; sample: in vitro; tested at: not given; reference: not given; direction: higher = stronger binding
Target: Histone acetyltransferase KAT6A, winged helix 2, GST fusion (KAT6A, Homo sapiens, UniProt Q92794, residues 85-181)
Notes: 8-mer, flanks averaged, mean of 2 arrays, mostly near background
Target sequence (chain): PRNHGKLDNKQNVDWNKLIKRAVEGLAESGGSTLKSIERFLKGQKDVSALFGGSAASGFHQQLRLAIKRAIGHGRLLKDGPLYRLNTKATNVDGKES
Oligonucleotide	E-score
AGAGACCG	-0.0478
GTCCGGCA	0.069
CCCCATGC	-0.0487
GGAAATAC	-0.0485
ACGTACCT	-0.243
TCAGTAAA	0.0854
ATGCGTTC	0.117
ATCTAAGC	-0.0139
CGGGAGTC	0.0073
CATCTTTC	-0.115
GTAATAGA	-0.14
ATGTGATC	-0.0128
CCAAATGG	0.139
CCACACTC	-0.0412
ACGGTATA	-0.156
TATAGACA	0.129
AGTCTACG	-0.324
AGAATTGA	-0.0318
TACACGGA	-0.0203
AAAATTGT	-0.00554
GTTTCTGA	0.0405
GCTTCGTA	0.0286
CTGTTCGA	0.0556
CTCATAAC	-0.0377
ACCACCAC	-0.0715

Set 3 — technique: RNA Bind-n-Seq; form: RNA; sample: in vitro; tested at: not given; reference: input RNA pool; direction: higher = stronger binding
Target: RING finger protein unkempt homolog, zinc fingers 1-6, GST-SBP tag (UNK, Homo sapiens, UniProt Q9C0B0, residues 30-357)
Notes: RNA with constant flanks, human-mouse chimeric sites, ends assumed
All sequences stand within: GGGAGUUCUACAGUCCGACGAUC … CAACAGAGGAUUGAGCAUCA
Residues (chain): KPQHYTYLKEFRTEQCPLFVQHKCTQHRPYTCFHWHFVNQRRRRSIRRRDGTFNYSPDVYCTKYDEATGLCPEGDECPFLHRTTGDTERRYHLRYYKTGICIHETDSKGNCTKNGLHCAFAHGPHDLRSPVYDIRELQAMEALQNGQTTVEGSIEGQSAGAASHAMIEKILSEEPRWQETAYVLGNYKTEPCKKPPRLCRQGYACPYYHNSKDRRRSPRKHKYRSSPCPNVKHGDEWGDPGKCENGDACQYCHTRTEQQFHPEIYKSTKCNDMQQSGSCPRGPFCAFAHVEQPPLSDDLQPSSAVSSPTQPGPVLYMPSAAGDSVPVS
Oligonucleotide	bound/input enrichment
AGAAUCUUGGGACUGUUUUACUUAAUUGGUCAUUGAUAUCUCAACAAACAUGGAGAUGAGAUUAGAAAUCUUGACAUCAACAGGUAUUAAGCAGAAAAAACCAUGGCCACGUGUCUCCUG	0.113 ratio
UUGCCUGAGAACGAGGAUGAGCUGGAGAGCACCAACAGGCGCUACACCAAGAGGGACUGUAGCACUUUCCUCAGAACUAGUGAGACGGGCAUCGUGGACCAGGUCAUGGUCACUCUCAAC	0.269 ratio
GUGCCCUUCUCGCUGCUGCGGAGCCCGCCCAGCUGGGACCCCUUCCGCUGGUACCCUGCACACAGCCGCCUCUUCGAUCAAGCUUUCGGGGUGCCCCGGUUGCCCGAUGAGUGGUCGCAG	0.0754 ratio
GUGUCCUGCUUUCAACUAUCACUGAGGAGGCAUCUCUACUGUUCUGUGAGCAUCAGGACUGUAGCGCUGUGUCACCACAGAUGAGAACAGAAGCAGCCUUUCUGUGGAGGGUGGGAAUGA	0.127 ratio
CACACACUCUUCUGCGGGACCCUCAUCCUGCAGGCCCGGGCCUAUGUGGGACCGCACGUCCUGGCAGUGGUGACCCGCACAGGGUUCUGCACAGCCAAAGGGGGCCUGGUGAGCUCCAUC	0.0813 ratio
AUCCAGUACUCCAAUCACAAAGAACUAAAGACAGAUAAUACAUUAAACCAACGUGCUCAGGCAGUUCUUCAAGCUGUGACAGCUGUCCAGACAGCAAAUACUCCUCUUAGUGGCACCACA	0.404 ratio
ACUCAGAGAUCCACCUCCCAAAGUGCUCUGGAGCUCUGUGUGGCCACCACACCUAACUUGAUGGAUAUAUAUUUUUUUUAAUAUGAAUCUUCCUGUUCUUCAUCCAGAGAAAGAUUUGUU	0.877 ratio
AGAAAGCAAAACUUGGAACGAUUUAAGAAAGGAGACGUAAGAUUCUUGAUUUGCACAGAUGUAGCUGCUAGAGGGAUUGAUAUCCACGGCGUUCCUUAUGUGAUCAAUGUCACUCUGCCU	0.107 ratio
UGUGCCCCACAAGAUCCUACCUGAGUGGCAGCUGAAGUUGACUCCCUCUCCUUGCCUGAACCCCCCCCCACUGCCCCUUGAGUCCACAGUGUCGGCUGAGAUGUUGCCUCUGCACGGUUC	0.385 ratio
UUUCUACUGCAGCAAACCAUGCUACGAAUUAAGGAUCCUAAGAAGUCCCUGGAUUUUUAUACGAGGGUUCUUGGACUGACCCUCCUGCAGAAGCUUGACUUCCCUGCUAUGAAGUUUUCG	0.206 ratio
UAAGUCCUGUGCCAGCACUUCGCUCAUAAAGUUUUAAAUUCAAGAAAAAUAGUGUUUGUUUCCUGAUUAUUGUAUCCAAUACUUUGCCUAGUAUGUAACUCACUCUUCUGGAUAAAUAAA	11.3 ratio

Set 4 — technique: RNA Bind-n-Seq; form: RNA; sample: in vitro; tested at: 200 nM; notes: whole 134-nt RNA, ends assumed; added: 150 mM LiCl; reference: input library; direction: higher = stronger binding; each molecule: 7-deaza-guanosine replaces G
Target: Fragile X messenger ribonucleoprotein 1, C-terminal low-complexity region (Fmr1, Mus musculus, UniProt P35922)
All sequences stand within: GGGAGUUCUACAGUCCGACGAUC … UGGAAUUCUCGGGUGUCAAGG
Oligonucleotide	log2 enrichment
UCCUGUGCUACACAUCGUAUGUACCGAAUCGGGGAAAAAGGGGUGGGGAAAAAAAGGGGAAAGUAUUAUGUUACGCCGUUCGGAUCUGCA	-1.9
GUCCUGUGCUACACAUCGUAUGUACCGAAUCGGGGCCCCCGGGCCCCCGGCCCCCGGGAAAGUAUUAUGUUACGCCGUUCGGAUCUGCAC	-2.33
UCAAGUCCUGUGCUACACAUCGUAUGUACCGAAUCGGGUUUUUGGGAGGGUGGGAAAGUAUUAUGUUACGCCGUUCGGAUCUGCACUUCC	-1.4
UAGCAAGCCAAAUUACAGCAGCAGAUGGACCUGCAGAAAAAUCACAUUUUCCGUCUGACUCAAGGACUGCAAGAAGCUCUAGAUCGGGCU	-3.93
UCAAGUCCUGUGCUACACAUCGUAUGUACCGAAUCGGGUUUGGUUUGGGUUUGGGAAAGUAUUAUGUUACGCCGUUCGGAUCUGCACUUC	-2.19
UGGCCCUGGUGGCAUGCGGGGAGGAAGAGGUGGCCUCAUGGAUCGUGGUGGUCCCGGUGGAAUGUUCAGAGGUGGCCAUGGUGGAGACAG	-0.76
ACCAUGCAGGUGGGCAUCUUUGGGAAGUGGGGCAAGGGUGGGAUAGGGAGGGGGGUAACACUUUGGGAACAGGUGGUCCCAGGUCGUUUC	0.97
UGUGCUACACAUCGUAUGUACCGAAUCGGGGAAAAAAAGGGGAAAAAAAGGGGUUUUUGGGGAAAGUAUUAUGUUACGCCGUUCGGAUCU	-0.422
AAGUCCUGUGCUACACAUCGUAUGUACCGAAUCGGGCCCCGGCCCCGGCCCCGGGGAAAGUAUUAUGUUACGCCGUUCGGAUCUGCACUU	-1.39
GCAGGAAGUAAAAACAAAUGGAAAAAAUUCGGAUAGUGGCAGGGGUGGGGGUUGCUAAGGAAAGGGUGGGAUGGGAGUGGGUAAAGAGUU	1.11
ACCAUGCAGGUGGGCAUCUGUGGGAAGUGGGGCAAGGGGGGGAUAGGGAGGGGGGUAACACUUUGGGAACAGGUGGUCCCAGGUCGUUUC	1.31
